Experimental data collected from several papers.
Parts stem from different laboratories: compare values within a part only. Values joined by “and” are separate records of one study, mostly repeats; a detail may differ.
Chain of UniProt P10721 (whole entry, unmodified, looked up): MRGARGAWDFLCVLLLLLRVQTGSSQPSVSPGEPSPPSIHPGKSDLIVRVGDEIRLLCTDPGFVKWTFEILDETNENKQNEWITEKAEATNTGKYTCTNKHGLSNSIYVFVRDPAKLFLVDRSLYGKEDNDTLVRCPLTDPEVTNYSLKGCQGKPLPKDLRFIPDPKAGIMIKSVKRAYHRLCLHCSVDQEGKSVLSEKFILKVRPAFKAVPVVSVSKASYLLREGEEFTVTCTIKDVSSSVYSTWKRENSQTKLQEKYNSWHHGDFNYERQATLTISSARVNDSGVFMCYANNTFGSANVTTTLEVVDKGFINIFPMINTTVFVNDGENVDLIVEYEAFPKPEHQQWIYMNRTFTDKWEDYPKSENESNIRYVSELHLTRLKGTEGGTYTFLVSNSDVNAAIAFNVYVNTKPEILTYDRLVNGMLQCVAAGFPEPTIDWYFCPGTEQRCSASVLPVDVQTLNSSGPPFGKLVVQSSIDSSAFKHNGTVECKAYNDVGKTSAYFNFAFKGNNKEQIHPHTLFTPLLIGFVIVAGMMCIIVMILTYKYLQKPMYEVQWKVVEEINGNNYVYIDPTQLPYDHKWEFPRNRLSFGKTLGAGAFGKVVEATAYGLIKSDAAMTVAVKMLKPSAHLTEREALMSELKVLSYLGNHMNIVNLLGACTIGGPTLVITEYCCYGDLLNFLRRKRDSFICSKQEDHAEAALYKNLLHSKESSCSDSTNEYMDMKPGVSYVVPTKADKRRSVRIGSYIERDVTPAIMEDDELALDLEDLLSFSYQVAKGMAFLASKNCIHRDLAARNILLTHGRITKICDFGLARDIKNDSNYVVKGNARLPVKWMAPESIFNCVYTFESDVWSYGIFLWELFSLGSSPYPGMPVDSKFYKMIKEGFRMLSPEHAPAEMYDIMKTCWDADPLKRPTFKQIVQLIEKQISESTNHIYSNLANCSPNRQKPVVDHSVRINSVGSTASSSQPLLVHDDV
Chain of UniProt P45983 (whole entry, looked up): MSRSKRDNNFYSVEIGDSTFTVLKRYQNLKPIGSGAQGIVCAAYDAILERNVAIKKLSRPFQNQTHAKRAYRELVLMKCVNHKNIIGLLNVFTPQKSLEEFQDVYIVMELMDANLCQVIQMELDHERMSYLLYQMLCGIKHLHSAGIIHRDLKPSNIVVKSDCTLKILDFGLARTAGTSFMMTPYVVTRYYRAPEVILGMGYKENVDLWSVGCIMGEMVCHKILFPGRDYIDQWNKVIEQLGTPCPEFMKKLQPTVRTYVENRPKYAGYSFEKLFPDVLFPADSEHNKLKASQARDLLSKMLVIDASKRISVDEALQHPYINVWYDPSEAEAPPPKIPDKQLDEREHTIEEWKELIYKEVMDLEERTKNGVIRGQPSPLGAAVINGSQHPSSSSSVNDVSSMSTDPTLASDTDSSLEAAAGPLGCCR

Set 1
Structure (SMILES): C[C@@H]1CN(c2cc(-c3n[nH]c4ccc(OC5(C)CC5)cc34)ncn2)C[C@H](C)O1
Technique: competition with immobilised ligand
Concentration: 0.1 µM
Quantity: remaining binding
target = EPHA6 (Homo sapiens, UniProt Q9UF33); read-out = cell-free assay; value = 90%
target = HIPK1 (Homo sapiens, UniProt Q86Z02); read-out = cell-free assay; value = 69%
target = FLT3 (Homo sapiens, UniProt P36888, ITD); read-out = cell-free assay; value = 100%
target = EPHA1 (Homo sapiens, UniProt P21709); read-out = cell-free assay; value = 76%
target = MAPK8 (Homo sapiens, UniProt P45983); read-out = cell-free assay; value = 63%
target = PIK3C3 (Homo sapiens, UniProt Q8NEB9); read-out = cell-free assay; value = 100%
target = SGK3 (Homo sapiens, UniProt Q96BR1); read-out = cell-free assay; value = 84%
target = STK3 (Homo sapiens, UniProt Q13188); read-out = cell-free assay; value = 78%
target = KIT (Homo sapiens, UniProt P10721, V559D/V654A); read-out = cell-free assay; value = 100%
target = CDK2 (Homo sapiens, UniProt P24941); read-out = cell-free assay; value = 96%
target = TAOK3 (Homo sapiens, UniProt Q9H2K8); read-out = cell-free assay; value = 69%
target = HCK (Homo sapiens, UniProt P08631); read-out = cell-free assay; value = 84%
target = DCLK2 (Homo sapiens, UniProt Q8N568); read-out = cell-free assay; value = 89%
target = NUAK2 (Homo sapiens, UniProt Q9H093); read-out = cell-free assay; value = 79%
target = MAP3K19 (Homo sapiens, UniProt Q56UN5); read-out = cell-free assay; value = 84%
target = SRPK1 (Homo sapiens, UniProt Q96SB4); read-out = cell-free assay; value = 100%
target = TAOK1 (Homo sapiens, UniProt Q7L7X3); read-out = cell-free assay; value = 86%
target = MAP2K5 (Homo sapiens, UniProt Q13163); read-out = cell-free assay; value = 90%
target = KIT (Homo sapiens, UniProt P10721); read-out = cell-free assay; value = 82%
target = BRSK2 (Homo sapiens, UniProt Q8IWQ3); read-out = cell-free assay; value = 100%
target = Tyrosine-protein kinase ABL1, non-phosphorylated (ABL1, Homo sapiens, UniProt P00519, F317I); read-out = binding; value = 74%
target = ACVR1B (Homo sapiens, UniProt P36896); read-out = cell-free assay; value = 90%
target = EPHA5 (Homo sapiens, UniProt P54756); read-out = cell-free assay; value = 95%
target = NIM1K (Homo sapiens, UniProt Q8IY84); read-out = cell-free assay; value = 72%
target = PIP5K1A (Homo sapiens, UniProt Q99755); read-out = cell-free assay; value = 100%

Set 2
Species: human
Matrix: microsomes or S9
Concentration: 2 µM
Time: 0.5 h
Quantity: remaining compound
SMILES = COc1cc(=O)n(C)cc1C(=O)N1CCN(c2ccc(C(F)(F)F)cn2)CC1; value = > 99%
SMILES = CCOC(=O)COc1ccc(-c2noc(-c3ccc(OCc4ccc(Br)cc4)cc3)c3cccc2-3)cc1; value = 97.3%
SMILES = CN1CCCn2nc(C(=O)N(C)Cc3cc4cc(F)ccc4[nH]3)cc2C1; value = 45.7%
SMILES = Fc1cnc(Nc2ccccc2Cl)nc1Nc1ccccc1Cl; value = 17.6%
SMILES = Oc1ccc([C@H]2Oc3cc(O)cc(O)c3C[C@H]2O)cc1; value = 91.5%
SMILES = CC(=O)c1ccc(C(=O)NOCC(C)NC(=O)OC(C)(C)C)cc1 (stereo not drawn); value = 84.8%
SMILES = O=C1CC(c2cccc3[nH]ccc23)c2c(n[nH]c2-c2ccccc2)N1 (stereo not drawn); value = 37.1%
SMILES = CCOc1ccc(C(=O)C2=CN(c3ccc(C#N)cc3)c3ccccc3S2(=O)=O)cc1; value = 59%
SMILES = CN1CC[C@H](Oc2cc(N3Cc4ccccc4C3=O)ccc2Cl)C1; value = 28.7%
SMILES = CCOc1ccc(NC(=O)Nc2ccc(-c3nnc(-c4ccccc4)o3)cc2)cc1; value = > 100%
SMILES = COC(=O)c1[nH]cc(C(=O)C2CCNCC2)c1C; value = 85.8%
SMILES = c1ccc(-c2nc3ccccc3nc2N2CCCC2)cc1; value = 22.7%
SMILES = CC(C)[C@@H](NS(=O)(=O)c1c(N)cc(Cl)cc1Cl)C(=O)NOC(C)(C)C; value = 0%
SMILES = O=C(CCc1ccccc1Cl)NCc1[nH]ncc1Br; value = 80%
SMILES = COc1cccc(-c2noc(Cn3cnc4c(nnn4-c4ccc(F)cc4)c3=O)n2)c1; value = 92.1%
SMILES = COc1ccc2c(c1)OCC(Cc1ccc(OC)c(O)c1)C2=O (stereo not drawn); value = 26.9%
SMILES = O=C(O)c1cc2ccc3oc(-c4ccccc4)nc3c2n1Cc1cccc(Cl)c1; value = 58.3%
SMILES = Cc1ccc(C)c(C[S+]([O-])Cc2cc(=O)n(C)c(=O)n2C)c1 (stereo not drawn); value = 70.2%

Set 3
Target: Tyrosine-protein kinase JAK2 (JAK2, Homo sapiens, UniProt O60674)
Chain of UniProt O60674 (whole entry, looked up): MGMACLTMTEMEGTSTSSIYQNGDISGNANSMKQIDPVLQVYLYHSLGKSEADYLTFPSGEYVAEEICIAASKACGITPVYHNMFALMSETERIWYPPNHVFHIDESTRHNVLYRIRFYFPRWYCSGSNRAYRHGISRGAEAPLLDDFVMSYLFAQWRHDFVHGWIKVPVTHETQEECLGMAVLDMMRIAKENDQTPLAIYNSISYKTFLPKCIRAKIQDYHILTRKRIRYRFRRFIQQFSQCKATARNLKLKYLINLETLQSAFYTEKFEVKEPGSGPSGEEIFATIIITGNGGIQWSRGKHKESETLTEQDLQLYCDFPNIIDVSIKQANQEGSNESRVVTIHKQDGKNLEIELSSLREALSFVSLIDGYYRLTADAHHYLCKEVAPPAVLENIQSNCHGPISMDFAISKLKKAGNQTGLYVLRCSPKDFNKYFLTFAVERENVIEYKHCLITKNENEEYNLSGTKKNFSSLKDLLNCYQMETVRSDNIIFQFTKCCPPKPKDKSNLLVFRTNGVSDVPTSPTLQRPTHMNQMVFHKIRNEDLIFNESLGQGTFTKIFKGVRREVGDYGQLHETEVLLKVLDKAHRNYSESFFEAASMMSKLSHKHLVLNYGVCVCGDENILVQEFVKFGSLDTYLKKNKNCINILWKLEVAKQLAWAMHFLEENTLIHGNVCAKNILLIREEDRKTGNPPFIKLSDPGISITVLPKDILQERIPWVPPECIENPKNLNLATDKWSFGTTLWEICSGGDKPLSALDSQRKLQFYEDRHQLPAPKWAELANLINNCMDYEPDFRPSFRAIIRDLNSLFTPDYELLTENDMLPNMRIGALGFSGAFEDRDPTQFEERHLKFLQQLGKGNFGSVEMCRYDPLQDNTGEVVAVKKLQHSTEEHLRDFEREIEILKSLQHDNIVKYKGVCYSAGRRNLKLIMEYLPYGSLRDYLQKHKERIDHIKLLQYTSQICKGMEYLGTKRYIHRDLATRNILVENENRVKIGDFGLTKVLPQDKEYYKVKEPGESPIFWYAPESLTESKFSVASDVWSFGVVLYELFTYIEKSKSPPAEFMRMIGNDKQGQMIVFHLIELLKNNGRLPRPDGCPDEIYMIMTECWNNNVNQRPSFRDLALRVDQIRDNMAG
Read-out: enzyme activity
Mode: inhibitor
Concentration: 0.5 µM
Relative to: control
Quantity: remaining activity
Compound = O=C1NC(=O)/C(=C/c2ccc3c(c2)OC(F)(F)O3)S1; value = 92.9%
Compound = Nc1nc(Nc2ccc(S(N)(=O)=O)cc2)nn1C(=S)Nc1c(F)cccc1F; value = 3.16%
Compound = CCCCc1c(-c2ccc(O)cc2)[nH]c2nccnc12; value = 77.8%
Compound = O=C1c2ccccc2-c2nc3nnnn3nc21; value = 82.6%
Compound = N#C/C(=C(/N)SC1C=CC=CC1)c1cccc(C(O)c2ccncc2)c1 (stereo not drawn); value = 99.7%
Compound = O=C(c1ccccc1)c1ccc(N2CCOCC2)cc1O; value = 94.1%
Compound = CC(C)N(CCC(=O)c1ccc2ccccc2c1)Cc1ccccc1; value = 97.5%
Compound = COc1cc2c(N3CCN(C(=O)Nc4ccc(OC(C)C)cc4)CC3)ncnc2cc1OCCCN1CCCCC1; value = 101%
Compound = CCN(CC)CCCCN1c2ccccc2Oc2ccc(Cl)cc21; value = 104%
Compound = CC(C)n1cnc2c(Nc3cccc(Cl)c3)nc(NCCO)nc21; value = 101%
Compound = O=C(O)/C=C/c1cc(Br)c(Br)c(Br)c1Br; value = 101%
Compound = NC(=O)c1ccc(-c2nc(-c3ccc4c(c3)OCCO4)c(-c3ccccn3)[nH]2)cc1; value = 103%
Compound = c1cc(-c2cnn3cc(-c4ccc(OCCN5CCCCC5)cc4)cnc23)ccn1; value = 103%
Compound = Clc1ccc(Nc2nnc(Cc3ccncc3)c3ccccc23)cc1; value = 106%
Compound = N#CC(c1ccnc(NCCc2cccnc2)n1)c1nc2ccccc2s1 (stereo not drawn); value = 106%
Compound = CNc1cc2c(Nc3cccc(Br)c3)ncnc2cn1; value = 82.1%
Compound = COc1cc2c(Nc3ccc(Br)cc3F)ncnc2cc1OCC1CCN(C)CC1; value = 102%
Compound = O=Nc1c(-c2c(O)[nH]c3ccccc23)[nH]c2ccccc12; value = 84.6%
Compound = FC(F)(F)c1ccc(/C=C/c2nc(COc3ccc(CCCCn4ccnn4)cc3)co2)cc1; value = 98.9%
Compound = O=c1c(-c2ccc(F)cc2)c(-c2ccncc2)[nH]n1-c1ccc(Cl)cc1; value = 95.1%
Compound = C[C@@H](N)[C@H]1CC[C@H](C(=O)Nc2ccncc2)CC1; value = 97.7%
Compound = NC(=O)c1cccc(-c2cc(Nc3ccc(OC(F)(F)F)cc3)ncn2)c1; value = 104%

Set 4
Target: DNA polymerase theta, ATPase domain (POLQ, Homo sapiens, UniProt O75417)
Chain of UniProt O75417 (whole entry, unmodified, looked up): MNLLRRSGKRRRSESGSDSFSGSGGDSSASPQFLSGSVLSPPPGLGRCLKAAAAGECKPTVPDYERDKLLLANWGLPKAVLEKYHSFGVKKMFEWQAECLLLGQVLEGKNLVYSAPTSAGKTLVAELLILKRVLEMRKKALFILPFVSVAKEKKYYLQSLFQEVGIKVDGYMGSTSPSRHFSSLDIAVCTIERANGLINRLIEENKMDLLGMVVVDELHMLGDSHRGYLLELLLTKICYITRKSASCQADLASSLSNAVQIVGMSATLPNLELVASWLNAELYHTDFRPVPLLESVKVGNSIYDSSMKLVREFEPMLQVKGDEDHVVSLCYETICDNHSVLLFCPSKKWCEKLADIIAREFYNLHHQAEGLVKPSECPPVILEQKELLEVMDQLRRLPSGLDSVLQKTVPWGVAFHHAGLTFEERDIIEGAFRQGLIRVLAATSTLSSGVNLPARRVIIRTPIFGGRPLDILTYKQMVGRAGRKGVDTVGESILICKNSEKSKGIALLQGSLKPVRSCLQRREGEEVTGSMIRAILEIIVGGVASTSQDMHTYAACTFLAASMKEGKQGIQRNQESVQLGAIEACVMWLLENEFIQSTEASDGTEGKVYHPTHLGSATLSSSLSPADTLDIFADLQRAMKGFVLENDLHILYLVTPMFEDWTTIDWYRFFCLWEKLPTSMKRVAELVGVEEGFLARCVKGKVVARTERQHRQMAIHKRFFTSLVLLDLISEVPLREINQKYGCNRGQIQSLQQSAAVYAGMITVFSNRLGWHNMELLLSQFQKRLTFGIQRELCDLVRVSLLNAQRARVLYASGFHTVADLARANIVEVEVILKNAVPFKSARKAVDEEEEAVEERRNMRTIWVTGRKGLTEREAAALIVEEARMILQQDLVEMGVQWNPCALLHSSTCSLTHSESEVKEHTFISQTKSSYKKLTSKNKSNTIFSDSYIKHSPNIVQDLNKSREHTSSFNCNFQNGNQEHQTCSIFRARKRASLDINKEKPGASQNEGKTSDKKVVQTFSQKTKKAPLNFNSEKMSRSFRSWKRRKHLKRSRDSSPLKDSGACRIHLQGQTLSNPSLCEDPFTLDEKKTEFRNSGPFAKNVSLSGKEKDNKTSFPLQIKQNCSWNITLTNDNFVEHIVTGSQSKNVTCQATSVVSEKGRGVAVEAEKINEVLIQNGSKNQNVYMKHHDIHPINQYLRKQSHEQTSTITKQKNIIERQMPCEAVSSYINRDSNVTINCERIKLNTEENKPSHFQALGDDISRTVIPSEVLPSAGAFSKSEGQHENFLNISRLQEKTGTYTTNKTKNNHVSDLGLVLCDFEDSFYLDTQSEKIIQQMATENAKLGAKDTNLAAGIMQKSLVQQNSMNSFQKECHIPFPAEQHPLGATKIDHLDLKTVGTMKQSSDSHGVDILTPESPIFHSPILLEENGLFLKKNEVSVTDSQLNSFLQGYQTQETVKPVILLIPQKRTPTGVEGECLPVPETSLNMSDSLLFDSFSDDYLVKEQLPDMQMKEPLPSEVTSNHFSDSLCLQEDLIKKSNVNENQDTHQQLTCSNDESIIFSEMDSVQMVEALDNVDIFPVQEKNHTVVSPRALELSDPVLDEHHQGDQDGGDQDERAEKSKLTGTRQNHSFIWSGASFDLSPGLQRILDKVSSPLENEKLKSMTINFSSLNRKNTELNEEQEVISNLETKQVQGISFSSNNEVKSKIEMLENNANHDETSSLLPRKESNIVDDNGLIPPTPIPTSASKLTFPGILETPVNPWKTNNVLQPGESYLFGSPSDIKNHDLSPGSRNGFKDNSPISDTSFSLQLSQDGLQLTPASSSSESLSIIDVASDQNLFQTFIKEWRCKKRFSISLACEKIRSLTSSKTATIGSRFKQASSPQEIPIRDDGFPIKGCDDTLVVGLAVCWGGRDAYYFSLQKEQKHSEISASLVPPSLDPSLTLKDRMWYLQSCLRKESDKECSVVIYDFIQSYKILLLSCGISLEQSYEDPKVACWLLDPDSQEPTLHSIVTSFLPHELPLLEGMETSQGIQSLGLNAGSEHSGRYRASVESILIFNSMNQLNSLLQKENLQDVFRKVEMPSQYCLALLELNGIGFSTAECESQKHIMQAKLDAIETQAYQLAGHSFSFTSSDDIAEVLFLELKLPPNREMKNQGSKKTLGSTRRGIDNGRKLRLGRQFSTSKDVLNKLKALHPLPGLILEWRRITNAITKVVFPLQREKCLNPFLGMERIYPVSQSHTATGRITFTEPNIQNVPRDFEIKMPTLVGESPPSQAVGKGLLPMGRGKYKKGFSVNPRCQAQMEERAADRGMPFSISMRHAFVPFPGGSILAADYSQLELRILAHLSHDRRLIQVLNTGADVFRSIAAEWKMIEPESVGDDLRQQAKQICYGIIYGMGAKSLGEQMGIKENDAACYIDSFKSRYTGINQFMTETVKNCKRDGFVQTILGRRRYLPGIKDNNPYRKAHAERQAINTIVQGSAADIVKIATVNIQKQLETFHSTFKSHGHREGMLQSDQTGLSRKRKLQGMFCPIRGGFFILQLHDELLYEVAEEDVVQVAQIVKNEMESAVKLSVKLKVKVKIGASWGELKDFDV
Read-out: enzyme activity
Mode: inhibitor
Concentration: 77 µM
Relative to: untreated
Quantity: remaining activity
SMILES = Cc1cnc(-c2cnc(NCCNc3ccc(C#N)cn3)nc2-c2ccc(Cl)cc2Cl)[nH]1; value = 99.6%
SMILES = NC(=S)c1ccc[n+]([C@@H]2O[C@H](COP(=O)([O-])OP(=O)(O)OC[C@H]3O[C@@H](n4cnc5c(N)ncnc54)[C@H](OP(=O)(O)O)[C@@H]3O)[C@@H](O)[C@H]2O)c1; value = 99.6%
SMILES = CCCCc1oc2ccc(NS(C)(=O)=O)cc2c1C(=O)c1ccc(OCCCN(CCCC)CCCC)cc1; value = 100%
SMILES = CC1=CC(=O)C2=C(C)CC[C@@H]3[C@H](OC(=O)[C@H]3C)[C@@H]12; value = 101%
SMILES = NCc1ccccc1CC(=O)N[C@@H]1C(=O)N2C(C(=O)O)=C(CSc3nnnn3CC(=O)O)CS[C@H]12; value = 97.4%
SMILES = C[C@@H](NCCCc1cccc(C(F)(F)F)c1)c1cccc2ccccc12; value = 103%
SMILES = CNC(=O)c1cc2c(cn1)[nH]c1ccccc12; value = 107%
SMILES = CC(C)(C)NS(=O)(=O)c1cncc(-c2cc(F)c3nc(N)nn3c2)c1; value = 103%
SMILES = COc1ccccc1N1CCN(CCN2C(=O)CC3(CCCC3)CC2=O)CC1; value = 103%
SMILES = OCCN1C[C@H](O)[C@@H](O)[C@H](O)[C@H]1CO; value = 100%
SMILES = COc1cccc(OC)c1OCCNCC1CSc2ccccc2O1 (stereo not drawn); value = 100%
SMILES = CCNC(=O)N1CCN(CCCC(c2ccc(F)cc2)c2ccc(F)cc2)CC1; value = 97.5%
SMILES = CC(=O)N(CC(O)CO)c1c(I)c(C(=O)NCC(O)CO)c(I)c(C(=O)NCC(O)CO)c1I (mixture of isomers); value = 99%
SMILES = CCC[C@H](NC(=O)[C@@H]1[C@H]2CCC[C@H]2CN1C(=O)[C@@H](NC(=O)[C@@H](NC(=O)c1cnccn1)C1CCCCC1)C(C)(C)C)C(=O)C(=O)NC1CC1; value = 98.7%
SMILES = NS(=O)(=O)c1cc2c(cc1Cl)NC(C(Cl)Cl)NS2(=O)=O (stereo not drawn); value = 102% and 100%
SMILES = CC1CNc2c(cccc2S(=O)(=O)N[C@@H](CCCNC(=N)N)C(=O)N2CC[C@@H](C)C[C@@H]2C(=O)O)C1 (stereo partly drawn); value = 101%
SMILES = Cn1cc(-c2[nH]c3cc(NC(=O)[C@H](N)C4CCCCC4)cc4c3c2C=NNC4=O)cn1; value = 103%
SMILES = O=C1Nc2ccc(Cl)cc2/C1=C/c1cc(Cl)c(O)c(Cl)c1; value = 110%
SMILES = Clc1ccc(C(Cn2ccnc2)OCc2ccc(Sc3ccccc3)cc2)c(Cl)c1 (stereo not drawn); value = 99.4%

Excerpt of the above (set 3):
Compound = CNc1cc2c(Nc3cccc(Br)c3)ncnc2cn1; value = 82.1%
Compound = COc1cc2c(N3CCN(C(=O)Nc4ccc(OC(C)C)cc4)CC3)ncnc2cc1OCCCN1CCCCC1; value = 101%
Compound = Nc1nc(Nc2ccc(S(N)(=O)=O)cc2)nn1C(=S)Nc1c(F)cccc1F; value = 3.16%
Compound = O=C(O)/C=C/c1cc(Br)c(Br)c(Br)c1Br; value = 101%
Compound = CCN(CC)CCCCN1c2ccccc2Oc2ccc(Cl)cc21; value = 104%
Compound = C[C@@H](N)[C@H]1CC[C@H](C(=O)Nc2ccncc2)CC1; value = 97.7%
Compound = N#C/C(=C(/N)SC1C=CC=CC1)c1cccc(C(O)c2ccncc2)c1 (stereo not drawn); value = 99.7%
Compound = NC(=O)c1cccc(-c2cc(Nc3ccc(OC(F)(F)F)cc3)ncn2)c1; value = 104%
Compound = c1cc(-c2cnn3cc(-c4ccc(OCCN5CCCCC5)cc4)cnc23)ccn1; value = 103%
Compound = N#CC(c1ccnc(NCCc2cccnc2)n1)c1nc2ccccc2s1 (stereo not drawn); value = 106%
Compound = O=Nc1c(-c2c(O)[nH]c3ccccc23)[nH]c2ccccc12; value = 84.6%
Compound = O=C1c2ccccc2-c2nc3nnnn3nc21; value = 82.6%
